Measurements of several laboratories.
Lines come from different studies, so protocols differ. ± marks the error that the study gave.
pbpA: Penicillin-binding protein 1A (pbpA, Streptococcus pneumoniae, UniProt Q8DR59)
Chain of UniProt P06276 (whole entry, looked up): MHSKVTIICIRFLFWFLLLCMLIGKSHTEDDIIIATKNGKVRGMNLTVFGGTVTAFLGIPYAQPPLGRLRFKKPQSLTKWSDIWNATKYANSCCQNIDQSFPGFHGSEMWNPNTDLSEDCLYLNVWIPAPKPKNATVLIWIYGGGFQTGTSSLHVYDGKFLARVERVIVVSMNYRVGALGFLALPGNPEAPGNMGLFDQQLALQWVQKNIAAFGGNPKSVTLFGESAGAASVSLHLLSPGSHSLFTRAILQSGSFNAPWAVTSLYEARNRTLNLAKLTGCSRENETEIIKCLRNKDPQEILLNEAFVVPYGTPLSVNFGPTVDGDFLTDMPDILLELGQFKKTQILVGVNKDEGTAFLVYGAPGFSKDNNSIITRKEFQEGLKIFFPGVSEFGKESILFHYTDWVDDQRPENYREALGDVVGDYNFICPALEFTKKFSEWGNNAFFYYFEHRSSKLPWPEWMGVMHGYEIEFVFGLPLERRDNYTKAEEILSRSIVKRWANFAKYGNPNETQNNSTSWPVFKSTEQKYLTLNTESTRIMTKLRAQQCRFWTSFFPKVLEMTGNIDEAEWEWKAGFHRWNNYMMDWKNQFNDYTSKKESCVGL
Chain of UniProt Q00975 (whole entry, looked up): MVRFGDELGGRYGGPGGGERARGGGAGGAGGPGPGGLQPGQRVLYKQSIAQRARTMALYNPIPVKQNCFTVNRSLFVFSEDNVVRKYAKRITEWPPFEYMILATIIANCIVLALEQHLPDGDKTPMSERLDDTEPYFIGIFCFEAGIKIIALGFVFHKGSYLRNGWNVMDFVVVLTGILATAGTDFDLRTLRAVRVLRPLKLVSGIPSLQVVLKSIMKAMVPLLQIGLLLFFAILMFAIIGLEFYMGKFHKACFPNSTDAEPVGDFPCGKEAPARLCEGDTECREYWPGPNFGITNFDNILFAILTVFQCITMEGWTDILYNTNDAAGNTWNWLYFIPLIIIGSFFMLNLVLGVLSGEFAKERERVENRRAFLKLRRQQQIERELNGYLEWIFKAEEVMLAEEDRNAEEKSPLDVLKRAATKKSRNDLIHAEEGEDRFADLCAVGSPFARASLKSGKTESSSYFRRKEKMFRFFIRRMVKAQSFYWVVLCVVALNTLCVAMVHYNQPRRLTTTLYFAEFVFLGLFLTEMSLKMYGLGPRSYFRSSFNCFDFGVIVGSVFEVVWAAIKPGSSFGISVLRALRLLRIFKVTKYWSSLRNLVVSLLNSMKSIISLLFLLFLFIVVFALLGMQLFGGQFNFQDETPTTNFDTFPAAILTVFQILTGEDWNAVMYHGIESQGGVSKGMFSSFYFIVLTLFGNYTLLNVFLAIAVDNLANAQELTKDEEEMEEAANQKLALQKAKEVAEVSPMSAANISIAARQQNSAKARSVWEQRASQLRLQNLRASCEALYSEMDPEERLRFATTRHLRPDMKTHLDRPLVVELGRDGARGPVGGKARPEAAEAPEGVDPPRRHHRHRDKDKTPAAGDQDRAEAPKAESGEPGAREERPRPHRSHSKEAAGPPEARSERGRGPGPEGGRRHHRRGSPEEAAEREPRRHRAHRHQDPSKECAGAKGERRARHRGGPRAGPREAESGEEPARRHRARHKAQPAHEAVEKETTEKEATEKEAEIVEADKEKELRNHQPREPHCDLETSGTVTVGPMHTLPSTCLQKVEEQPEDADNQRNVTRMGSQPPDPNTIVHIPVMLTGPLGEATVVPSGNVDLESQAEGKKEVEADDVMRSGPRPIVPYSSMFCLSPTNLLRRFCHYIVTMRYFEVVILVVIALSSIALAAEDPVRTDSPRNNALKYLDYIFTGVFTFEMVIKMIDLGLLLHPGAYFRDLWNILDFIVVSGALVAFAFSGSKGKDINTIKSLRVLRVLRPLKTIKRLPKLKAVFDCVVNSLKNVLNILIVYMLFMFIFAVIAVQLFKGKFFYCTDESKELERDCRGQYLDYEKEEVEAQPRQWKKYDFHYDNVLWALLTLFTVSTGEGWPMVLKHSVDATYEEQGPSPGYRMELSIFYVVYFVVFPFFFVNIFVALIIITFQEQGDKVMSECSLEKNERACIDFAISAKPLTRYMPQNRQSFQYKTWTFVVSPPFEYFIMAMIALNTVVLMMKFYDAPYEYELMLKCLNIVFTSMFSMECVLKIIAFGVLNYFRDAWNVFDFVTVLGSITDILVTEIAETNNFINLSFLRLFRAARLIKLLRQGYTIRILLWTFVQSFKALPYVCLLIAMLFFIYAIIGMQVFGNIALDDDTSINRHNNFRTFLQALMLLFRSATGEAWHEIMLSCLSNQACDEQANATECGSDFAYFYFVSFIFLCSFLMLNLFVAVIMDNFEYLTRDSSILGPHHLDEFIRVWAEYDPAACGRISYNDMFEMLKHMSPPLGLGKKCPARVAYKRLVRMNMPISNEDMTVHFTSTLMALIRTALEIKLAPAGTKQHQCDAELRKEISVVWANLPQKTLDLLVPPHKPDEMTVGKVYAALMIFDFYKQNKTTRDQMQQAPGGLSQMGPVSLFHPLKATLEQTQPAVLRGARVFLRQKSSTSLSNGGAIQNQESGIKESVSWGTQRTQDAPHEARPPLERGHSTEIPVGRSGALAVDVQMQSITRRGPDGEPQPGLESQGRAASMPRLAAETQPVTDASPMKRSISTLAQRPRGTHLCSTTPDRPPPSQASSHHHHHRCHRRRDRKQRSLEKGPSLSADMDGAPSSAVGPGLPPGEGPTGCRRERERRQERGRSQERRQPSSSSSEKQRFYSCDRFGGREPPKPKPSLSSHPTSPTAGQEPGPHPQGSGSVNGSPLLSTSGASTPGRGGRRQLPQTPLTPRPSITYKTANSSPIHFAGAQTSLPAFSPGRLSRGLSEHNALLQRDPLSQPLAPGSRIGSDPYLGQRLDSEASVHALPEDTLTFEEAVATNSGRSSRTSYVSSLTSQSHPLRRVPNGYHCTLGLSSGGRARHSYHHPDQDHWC
Chain of UniProt P48145 (whole entry, looked up): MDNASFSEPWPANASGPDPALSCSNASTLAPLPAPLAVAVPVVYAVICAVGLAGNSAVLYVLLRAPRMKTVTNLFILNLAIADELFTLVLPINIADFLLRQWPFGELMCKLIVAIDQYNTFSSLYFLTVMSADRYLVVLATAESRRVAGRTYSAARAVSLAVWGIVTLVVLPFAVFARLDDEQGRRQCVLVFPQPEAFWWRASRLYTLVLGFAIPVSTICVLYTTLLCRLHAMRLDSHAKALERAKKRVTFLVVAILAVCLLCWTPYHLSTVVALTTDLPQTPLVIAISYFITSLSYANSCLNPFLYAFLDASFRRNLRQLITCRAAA
Chain of UniProt Q9UNW8 (whole entry, looked up): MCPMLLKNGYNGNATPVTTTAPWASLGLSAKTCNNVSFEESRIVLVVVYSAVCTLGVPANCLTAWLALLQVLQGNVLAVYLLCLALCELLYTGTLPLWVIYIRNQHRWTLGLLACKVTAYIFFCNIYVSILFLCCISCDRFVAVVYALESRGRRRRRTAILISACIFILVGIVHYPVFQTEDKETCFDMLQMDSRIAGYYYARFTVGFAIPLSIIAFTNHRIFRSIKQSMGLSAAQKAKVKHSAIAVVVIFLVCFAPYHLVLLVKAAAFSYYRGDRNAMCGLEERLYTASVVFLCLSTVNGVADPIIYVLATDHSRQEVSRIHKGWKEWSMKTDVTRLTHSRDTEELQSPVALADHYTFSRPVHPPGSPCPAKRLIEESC
Chain of UniProt P35462 (whole entry, looked up): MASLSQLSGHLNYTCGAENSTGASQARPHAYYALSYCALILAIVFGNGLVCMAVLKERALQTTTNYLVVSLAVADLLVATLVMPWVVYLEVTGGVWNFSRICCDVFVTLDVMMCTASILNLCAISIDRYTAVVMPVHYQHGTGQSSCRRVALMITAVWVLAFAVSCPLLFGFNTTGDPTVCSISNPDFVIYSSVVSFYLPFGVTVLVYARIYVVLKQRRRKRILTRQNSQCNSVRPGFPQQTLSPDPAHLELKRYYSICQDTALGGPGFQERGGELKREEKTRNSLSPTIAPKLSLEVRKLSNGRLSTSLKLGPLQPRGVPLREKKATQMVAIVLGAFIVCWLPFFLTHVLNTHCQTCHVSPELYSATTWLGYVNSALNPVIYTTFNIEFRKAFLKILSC
Chain of UniProt O75385 (whole entry, looked up): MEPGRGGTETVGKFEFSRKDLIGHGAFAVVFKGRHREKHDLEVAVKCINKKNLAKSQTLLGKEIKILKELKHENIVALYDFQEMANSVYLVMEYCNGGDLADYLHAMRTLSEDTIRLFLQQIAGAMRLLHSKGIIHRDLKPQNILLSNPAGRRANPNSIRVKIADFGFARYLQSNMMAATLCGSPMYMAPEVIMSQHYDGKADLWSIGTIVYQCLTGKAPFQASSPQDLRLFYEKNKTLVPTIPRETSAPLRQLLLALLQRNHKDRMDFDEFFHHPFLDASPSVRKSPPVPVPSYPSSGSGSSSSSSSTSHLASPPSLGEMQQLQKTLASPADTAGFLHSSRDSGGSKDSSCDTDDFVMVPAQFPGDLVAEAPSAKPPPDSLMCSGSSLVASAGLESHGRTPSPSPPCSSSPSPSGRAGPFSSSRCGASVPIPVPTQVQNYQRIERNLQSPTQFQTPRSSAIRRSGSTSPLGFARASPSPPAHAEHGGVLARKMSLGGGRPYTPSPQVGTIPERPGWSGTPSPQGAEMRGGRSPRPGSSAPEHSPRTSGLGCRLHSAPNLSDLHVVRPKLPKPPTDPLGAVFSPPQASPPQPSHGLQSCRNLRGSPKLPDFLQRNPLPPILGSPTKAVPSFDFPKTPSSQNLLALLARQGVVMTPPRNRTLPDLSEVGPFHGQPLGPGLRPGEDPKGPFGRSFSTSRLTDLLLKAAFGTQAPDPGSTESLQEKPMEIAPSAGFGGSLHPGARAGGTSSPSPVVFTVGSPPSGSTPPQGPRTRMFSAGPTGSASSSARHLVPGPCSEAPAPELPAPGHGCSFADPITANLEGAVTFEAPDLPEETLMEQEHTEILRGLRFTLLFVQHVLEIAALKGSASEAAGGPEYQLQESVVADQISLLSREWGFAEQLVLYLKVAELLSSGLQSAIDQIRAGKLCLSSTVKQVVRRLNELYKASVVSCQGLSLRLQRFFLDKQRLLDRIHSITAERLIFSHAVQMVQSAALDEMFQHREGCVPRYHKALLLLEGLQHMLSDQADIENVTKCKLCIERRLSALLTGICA

C[C@H]1COCCN1c1nc(NCc2cccnc2C(F)(F)F)c2cccnc2n1
IC50 (ROCK2 (Homo sapiens, UniProt O75116); inhibitor): > 100 µM

Cc1[nH]c(C)c(S(=O)(=O)Nc2ccc(S(F)(F)(F)(F)F)cc2)c1C(=O)N1CCC(F)(F)C1
cooperativity factor α (DRD3 (Homo sapiens, UniProt P35462); allosteric modulator, ternary complex model; added: dopamine, [3H]methylspiperone): 4.8

CN(C(=O)n1cnc(-c2ccc[n+]([O-])c2)c1)C1CCCCC1
inhibition (HCRTR2 (Homo sapiens, UniProt O43614); radioligand binding; 50 µM): 11%

CCN(CC)CCOCCOC(=O)C1(c2ccccc2)CCCC1
efficacy (Cholinesterase (BCHE, Homo sapiens, UniProt P06276); concentration not given, Triton): -77 ± 5.89%

Oc1cc(Cl)cc(-c2cccc(Cl)c2)c1
maximum activity (Androgen receptor (AR, Homo sapiens, UniProt P10275); reporter gene, antagonist; 5 µM, added: DHT 2 nM; baseline: DHT 2 nM): 18%

[2H]c1c([2H])c([C@]2([2H])CCCN2C(=O)C(C)(C)Oc2ccc3cn[nH]c3c2)c([2H])c([2H])c1C([2H])([2H])[2H]
remaining binding (ULK1 (Homo sapiens, UniProt O75385); KINOMEscan; 1 µM; baseline: DMSO control): 74%

CCN(CC)C(=O)Oc1ccc(CCC(=O)N2CCC(Cc3ccccc3)CC2)cc1OC
selectivity ratio (Cholinesterase (BCHE, Equus caballus, UniProt P81908); Ellman; equine serum BuChE; baseline: AChE IC50 over BuChE IC50): 3.3

C[C@H]1CCCC(=O)CCC/C=C/c2cc(O)cc(O)c2C(=O)O1
Km (lcc5 (Coprinopsis cinerea, UniProt Q6VMB9); substrate, HPLC; Coprinopsis cinerea, 0.1 M phosphate buffer; pH 7.5, 45 °C, no mediator): 88.5 ± 7.1 µM

COc1cc(Nc2ncc(F)c(Nc3ccc4c(n3)NC(=O)C(C)(C)O4)n2)cc(OC)c1OC
inhibition (MAP2K5 (Homo sapiens, UniProt Q13163); binding, KINOMEscan; 10 µM, MEK5 kinase): 100%

CCN(CC)CCCC[C@H](NC(=O)[C@H](CC(C)C)NC(=O)[C@H](C)NC(=O)[C@H](Cc1ccccc1)NC(=O)c1ccc(C(C)(C)C)cc1)C(=O)N[C@@H](CO)C(=O)OC
specific binding (HRH1 (Homo sapiens, UniProt P35367); antagonist, radioligand binding; 10 µM; baseline: control binding): 106%

c1cc(N2CCNCC2)c2cc[nH]c2c1
Emax (CHRM4 (Homo sapiens, UniProt P08173); ERK1/2 phosphorylation, agonist; CHO cells): < 10%

Cc1nn(C)cc1-c1nc2c(N3CCN(Cc4ccc(Cl)cc4)CC3)c(Cl)cnc2[nH]1
remaining binding (Ribosomal protein S6 kinase alpha-1, C-terminal kinase domain (RPS6KA1, Homo sapiens, UniProt Q15418); KINOMEscan; 1 µM; baseline: DMSO control): 92%

NS(=O)(=O)C(F)(F)F
binding free energy (CA1 (Homo sapiens, UniProt P00915); urea denaturation shift, Trp fluorescence; 5 µM, pH 6.0): -9.26 kcal/mol

CO/N=C(\C(=O)N[C@@H]1C(=O)N2C(C(=O)O)=C(COC(C)=O)CS[C@H]12)c1csc(N)n1
kinact/KI (pbpA; inhibitor): 10000 ± 5000 M⁻¹ s⁻¹

NCc1cc(=O)[nH]o1
agonist score (GABA-A receptor; alpha-1/beta-2/gamma-2 (Rattus norvegicus, UniProt P18508+P62813+P63138); membrane potential, agonist, QP-DHM fluorescence; HEK293 expressing GABAA; 10 µM; baseline: 10 µM GABA, direction not given): 1.02

CC12CCC(CC1)C(C)(C)O2
coupling efficiency (1,8-cineole 2-endo-monooxygenase (cinA, Citrobacter braakii, UniProt Q8VQF6, Y81F); product per NADPH consumed, substrate, GC-MS; Y81F enzyme variant): 105%

O=C(Nc1cccnn1)N1CCC(=Cc2cccc(Oc3ccc(C(F)(F)F)cn3)c2)CC1
inhibition (Adra1b (Rattus norvegicus, UniProt P15823); binding; 10 µM, added: [3H]prazosin): 8%

O=C(c1ccc(Cl)cc1)N1CCN2C(=O)N(OC(=O)N3CCOc4ccccc43)C(=O)C2C1 (centres unmarked)
median ratio (S-formylglutathione hydrolase (Homo sapiens, UniProt P10768); enzyme activity, inhibitor, MS-based ABPP; SW-620 conditioned medium; 10 µM, 1 h, 37 °C; baseline: compound over DMSO, lower = stronger inhibition): 1.07

O=C(O)C(F)(F)C(F)(F)C(F)(F)C(F)(F)C(F)(F)C(F)(F)C(F)(F)F
linear uptake duration (SLC22A12 (Homo sapiens, UniProt Q96S37); substrate; HEK293 stably expressing; 10 µM): 2.5 min

CCN1CCN(C(=O)N[C@@H](C(=O)N[C@@H]2C(=O)N3[C@@H]2SC(C)(C)[C@@H]3C(=O)O)c2ccccc2)C(=O)C1=O
kinact/KI (pbpA; inhibitor): 1800 ± 190 M⁻¹ s⁻¹

COc1c(N2CC3CCCNC3C2)c(F)cc2c(=O)c(C(=O)OCc3cnc([N+](=O)[O-])s3)cn(C3CC3)c12.O=C(O)C(F)(F)F (centres unmarked)
time to near complete conversion (nfsB (Escherichia coli K-12, UniProt P38489); substrate, fluorimetry, item: moxifloxacin release; 10 µM, added: NADH 100 µM): < 30 s

CC(C(O)c1ccccc1)N(C)CCOC(c1ccccc1)c1ccccc1 (centres unmarked)
efficacy (Cholinesterase (BCHE, Homo sapiens, UniProt P06276); concentration not given, Triton): -97.1 ± 12.4%

O=C[C@H](O)COP(=O)(O)O
Km (dxs (Pseudomonas aeruginosa, UniProt Q9KGU7, R482A); substrate): 2600 ± 400 µM

COc1cc2nccc(Oc3ccc(NC(=O)c4cc5c(n(-c6ccccc6)c4=O)CCCC5=O)nc3)c2cc1OC
selectivity ratio (HCK (Homo sapiens, UniProt P08631); cell viability, CellTiter-Glo; Ba/F3 expressing recombinant kinase; baseline: HCK IC50 over AXL IC50): > 100

CC1(C)C(C=C(Cl)Cl)C1C(=O)OCc1cccc(Oc2ccccc2)c1 (centres unmarked)
remaining activity (uncharacterized protein (Anopheles coluzzii, UniProt A0A6E8VQK1); enzyme activity, inhibitor; Sf9 cell homogenate; 139.5 µM, 0.1667 h, added: α-naphthyl acetate substrate; baseline: no inhibitor): 39.5%

CCN(CC)CCOC(=O)C(Cc1cccc2ccccc12)CC1CCCO1 (centres unmarked)
efficacy (Cholinesterase (BCHE, Homo sapiens, UniProt P06276); concentration not given, Triton): -95.3 ± 3.57%

CC[C@@H](C)[C@@H](NC(=O)[C@@H](Cc1ccc(O)cc1)NC(=O)[C@H]1CCCN1C(=O)[C@@H](CCCNC(=N)N)NC(=O)[C@H](N)Cc1c[nH]cn1)C(=O)N[C@H](C)C(=O)N[C@H](Cc1c[nH]cn1)C(=O)N[C@H](CCCNC(=N)N)C(=O)N[C@H](CCCCNC(=O)c1cccc(S(=O)(=O)F)c1)C(=O)N[C@H](Cc1ccc(O)cc1)C(=O)N[C@H](CO)C(=O)N[C@H](Cc1ccccc1)C(N)=O
surface TFRC expression (Transferrin receptor protein 1 (Tfrc, Mus musculus, UniProt Q62351); flow cytometry; RAW264.7; 24 h, pH 6, replicate 2, unit not given; baseline: 0 h): 0.827

C[C@H]1CN(c2n[nH]c3nc(N[C@H]4CC[C@H](NS(=O)(=O)CCC(F)(F)F)CC4)ncc23)CCO1
relative abundance (HSD17B4 (Homo sapiens, UniProt P51659); inhibitor, Kinobeads competition profiling; 0.032 µM; baseline: vehicle): 1

COc1ccc(N2C(=O)N(c3c(C)cccc3Cl)Cc3cnc(Nc4ccc(C5CCN(C)CC5)cc4OC)nc32)nc1
inhibition (PIM3 (Homo sapiens, UniProt Q86V86); kinase activity; 0.5 µM): 1.69%

Cc1cn([C@H]2C[C@H](O)[C@@H](COP(=O)(O)OP(=O)(O)OP(=O)(O)O)O2)c(=O)[nH]c1=O
kcat (Gag-Pol polyprotein, reverse transcriptase (gag-pol, Human immunodeficiency virus type 1 group M subtype B, UniProt P04585, K653T); nucleotide misincorporation, steady-state kinetics; K66T RT, added: matched template/primer, template T): 0.191 ± 0.04 s⁻¹

COc1cc(N)c(Cl)cc1C(=O)NC1CN2CCC1CC2 (centres unmarked)
log2 fold change (GPR132 (Homo sapiens, UniProt Q9UNW8); β-arrestin recruitment, TANGO luminescence; concentration not given; baseline: basal luminescence): 0.034

CC[C@H](CO)Nc1nc(NCc2ccccc2)c2ncn(C(C)C)c2n1
binding score (HIPK1 (Homo sapiens, UniProt Q86Z02); KINOMEscan; 10 µM; direction not given): 5.9

Cc1c(Cl)c(=O)oc2cc(OP(=O)(OCCCl)OCCCl)ccc12
efficacy (Cholinesterase (BCHE, Homo sapiens, UniProt P06276); concentration not given, Triton): -78.4 ± 11.8%

COc1ccc2c3c([nH]c2c1)CCN(C)CC3.O=C(O)/C=C/C(=O)O
Hill coefficient (Voltage-dependent N-type calcium channel subunit alpha-1B (Homo sapiens, UniProt Q00975); barium current, inhibitor, whole-cell patch clamp; HEK293T): 1.6

Nc1ncnc2c1ncn2[C@@H]1O[C@H](COP(=O)(O)OP(=O)(O)NP(=O)(O)O)[C@@H](O)[C@H]1O
binding enthalpy (ΔH) (Cell cycle histidine kinase CckA, G318A; cytoplasmic region (Caulobacter vibrioides, UniProt Q9X688, G318A); isothermal titration calorimetry; Caulobacter crescentus; concentration not given, 12 °C, added: without c-di-GMP): -4.9 kcal/mol

O=C(O)COP(=O)(O)O
Ki ratio (TPI1 (Saccharomyces cerevisiae, UniProt P00942, Y208A); enzyme activity, competitive inhibitor, GPDH/NADH-coupled; pH 8.3, 25 °C, ionic strength 0.1 NaCl, added: glyceraldehyde 3-phosphate substrate; baseline: mutant over wild type): 40

CN1CCN(c2cc(-c3ccncc3)c(-c3ccc4ccccc4c3)nn2)CC1
activation (NPBWR1 (Homo sapiens, UniProt P48145); agonist, FLIPR; 12.5 µM): -0.4%

O=C(Nc1cnccc1Cl)N1CCN(Cc2ccc3c(c2)OC(F)(F)O3)CC1
inhibition (Abhydrolase domain-containing protein 11 (Rattus norvegicus, UniProt D3ZXK4); probe labelling, inhibitor, competitive ABPP with azido-FP probe, item: Abhd11; rat brain membrane fraction; 1 µM): 52.7%
